Measured values from different studies.
Parts stem from different laboratories: compare values within a part only. Changes are numbered by the printed parent chain.
Chain of UniProt Q9Y3S1 (whole entry, looked up): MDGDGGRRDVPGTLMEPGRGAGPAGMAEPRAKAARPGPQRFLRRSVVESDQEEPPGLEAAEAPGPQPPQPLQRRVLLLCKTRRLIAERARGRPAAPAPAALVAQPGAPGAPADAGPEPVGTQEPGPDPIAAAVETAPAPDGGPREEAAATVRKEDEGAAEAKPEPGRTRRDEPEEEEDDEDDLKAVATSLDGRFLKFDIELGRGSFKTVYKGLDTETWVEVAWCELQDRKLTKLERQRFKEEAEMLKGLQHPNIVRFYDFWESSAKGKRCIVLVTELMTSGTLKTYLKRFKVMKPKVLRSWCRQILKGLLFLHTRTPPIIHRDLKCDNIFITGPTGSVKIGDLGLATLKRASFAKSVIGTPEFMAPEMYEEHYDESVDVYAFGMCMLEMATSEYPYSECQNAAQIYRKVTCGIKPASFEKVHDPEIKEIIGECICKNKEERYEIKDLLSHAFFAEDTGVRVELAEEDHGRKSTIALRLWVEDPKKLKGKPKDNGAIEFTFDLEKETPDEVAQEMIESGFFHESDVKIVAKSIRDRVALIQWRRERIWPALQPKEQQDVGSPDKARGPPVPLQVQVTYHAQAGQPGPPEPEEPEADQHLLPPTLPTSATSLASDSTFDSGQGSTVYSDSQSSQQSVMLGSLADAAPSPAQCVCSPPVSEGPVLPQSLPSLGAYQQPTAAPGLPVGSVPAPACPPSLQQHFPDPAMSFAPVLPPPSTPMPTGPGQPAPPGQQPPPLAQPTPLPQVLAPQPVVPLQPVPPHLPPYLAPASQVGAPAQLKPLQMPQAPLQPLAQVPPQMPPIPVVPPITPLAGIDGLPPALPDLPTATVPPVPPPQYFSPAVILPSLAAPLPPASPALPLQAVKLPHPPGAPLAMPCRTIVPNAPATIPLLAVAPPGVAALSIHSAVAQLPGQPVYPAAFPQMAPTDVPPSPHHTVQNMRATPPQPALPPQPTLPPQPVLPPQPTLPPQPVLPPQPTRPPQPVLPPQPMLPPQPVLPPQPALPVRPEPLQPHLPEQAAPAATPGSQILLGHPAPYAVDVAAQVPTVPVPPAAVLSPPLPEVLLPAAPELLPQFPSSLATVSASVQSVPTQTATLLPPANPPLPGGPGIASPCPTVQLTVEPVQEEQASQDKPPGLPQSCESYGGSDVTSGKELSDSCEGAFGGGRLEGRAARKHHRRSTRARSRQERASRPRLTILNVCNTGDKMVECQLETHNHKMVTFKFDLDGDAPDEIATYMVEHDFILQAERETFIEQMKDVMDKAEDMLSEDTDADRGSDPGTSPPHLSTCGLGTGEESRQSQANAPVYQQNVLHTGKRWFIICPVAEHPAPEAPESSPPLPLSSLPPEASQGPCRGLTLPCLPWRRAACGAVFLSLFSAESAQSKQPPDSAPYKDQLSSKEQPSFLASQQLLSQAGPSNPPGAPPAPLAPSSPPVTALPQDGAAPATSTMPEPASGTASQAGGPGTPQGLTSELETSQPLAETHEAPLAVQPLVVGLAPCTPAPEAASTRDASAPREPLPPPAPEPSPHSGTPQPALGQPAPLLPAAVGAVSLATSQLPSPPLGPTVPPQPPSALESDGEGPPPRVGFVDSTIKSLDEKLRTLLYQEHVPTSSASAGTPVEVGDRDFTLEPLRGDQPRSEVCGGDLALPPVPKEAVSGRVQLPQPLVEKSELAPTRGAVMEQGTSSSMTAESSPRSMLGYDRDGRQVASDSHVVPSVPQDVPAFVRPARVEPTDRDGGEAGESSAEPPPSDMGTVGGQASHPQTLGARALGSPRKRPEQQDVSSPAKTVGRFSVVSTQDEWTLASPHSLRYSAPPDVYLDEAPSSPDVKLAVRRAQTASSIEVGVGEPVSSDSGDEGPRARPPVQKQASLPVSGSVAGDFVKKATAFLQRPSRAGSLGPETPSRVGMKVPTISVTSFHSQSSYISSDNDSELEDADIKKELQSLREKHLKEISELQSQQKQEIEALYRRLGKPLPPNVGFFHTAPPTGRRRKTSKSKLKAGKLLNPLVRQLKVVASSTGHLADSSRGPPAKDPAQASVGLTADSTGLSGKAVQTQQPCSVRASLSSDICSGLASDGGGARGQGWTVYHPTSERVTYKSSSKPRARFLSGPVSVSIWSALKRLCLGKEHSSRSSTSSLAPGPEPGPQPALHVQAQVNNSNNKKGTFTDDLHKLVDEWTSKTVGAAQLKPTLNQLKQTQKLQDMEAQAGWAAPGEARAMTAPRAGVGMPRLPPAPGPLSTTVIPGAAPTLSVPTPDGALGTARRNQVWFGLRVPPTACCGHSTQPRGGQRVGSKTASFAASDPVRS
Chain of UniProt O00506 (whole entry, looked up): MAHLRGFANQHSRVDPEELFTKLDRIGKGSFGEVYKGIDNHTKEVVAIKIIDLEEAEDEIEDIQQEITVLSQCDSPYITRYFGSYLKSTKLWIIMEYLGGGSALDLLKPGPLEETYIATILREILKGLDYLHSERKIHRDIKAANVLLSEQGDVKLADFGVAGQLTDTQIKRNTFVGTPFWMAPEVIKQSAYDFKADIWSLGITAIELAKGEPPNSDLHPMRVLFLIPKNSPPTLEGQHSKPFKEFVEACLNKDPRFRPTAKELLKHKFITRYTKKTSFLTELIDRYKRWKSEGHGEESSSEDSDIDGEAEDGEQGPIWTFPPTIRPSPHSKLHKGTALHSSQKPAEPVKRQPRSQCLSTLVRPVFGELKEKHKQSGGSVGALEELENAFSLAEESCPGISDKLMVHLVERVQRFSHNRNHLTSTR
Chain of UniProt P30530 (whole entry, looked up): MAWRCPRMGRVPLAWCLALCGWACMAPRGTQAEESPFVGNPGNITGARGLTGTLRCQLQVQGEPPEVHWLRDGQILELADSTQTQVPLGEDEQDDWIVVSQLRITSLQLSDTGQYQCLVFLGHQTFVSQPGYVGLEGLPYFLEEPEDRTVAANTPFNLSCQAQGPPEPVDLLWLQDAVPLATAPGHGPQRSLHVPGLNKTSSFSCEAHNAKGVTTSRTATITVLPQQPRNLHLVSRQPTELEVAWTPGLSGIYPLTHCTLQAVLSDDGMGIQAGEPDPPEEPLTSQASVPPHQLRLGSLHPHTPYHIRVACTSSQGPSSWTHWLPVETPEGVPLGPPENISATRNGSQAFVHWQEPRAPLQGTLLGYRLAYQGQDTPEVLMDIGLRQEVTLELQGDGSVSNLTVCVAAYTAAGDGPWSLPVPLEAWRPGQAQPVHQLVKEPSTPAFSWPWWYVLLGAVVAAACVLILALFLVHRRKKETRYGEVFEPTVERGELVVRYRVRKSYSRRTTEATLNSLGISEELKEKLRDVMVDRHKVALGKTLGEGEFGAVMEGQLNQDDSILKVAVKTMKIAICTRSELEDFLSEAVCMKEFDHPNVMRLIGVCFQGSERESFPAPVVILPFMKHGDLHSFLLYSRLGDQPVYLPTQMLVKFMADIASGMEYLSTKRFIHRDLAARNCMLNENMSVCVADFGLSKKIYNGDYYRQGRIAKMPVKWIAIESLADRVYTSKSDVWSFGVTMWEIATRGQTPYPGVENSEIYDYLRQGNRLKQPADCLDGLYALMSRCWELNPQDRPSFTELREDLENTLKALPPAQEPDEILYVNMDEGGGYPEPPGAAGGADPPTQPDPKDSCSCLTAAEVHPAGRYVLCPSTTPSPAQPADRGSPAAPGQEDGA
Chain of UniProt P54760 (whole entry, looked up): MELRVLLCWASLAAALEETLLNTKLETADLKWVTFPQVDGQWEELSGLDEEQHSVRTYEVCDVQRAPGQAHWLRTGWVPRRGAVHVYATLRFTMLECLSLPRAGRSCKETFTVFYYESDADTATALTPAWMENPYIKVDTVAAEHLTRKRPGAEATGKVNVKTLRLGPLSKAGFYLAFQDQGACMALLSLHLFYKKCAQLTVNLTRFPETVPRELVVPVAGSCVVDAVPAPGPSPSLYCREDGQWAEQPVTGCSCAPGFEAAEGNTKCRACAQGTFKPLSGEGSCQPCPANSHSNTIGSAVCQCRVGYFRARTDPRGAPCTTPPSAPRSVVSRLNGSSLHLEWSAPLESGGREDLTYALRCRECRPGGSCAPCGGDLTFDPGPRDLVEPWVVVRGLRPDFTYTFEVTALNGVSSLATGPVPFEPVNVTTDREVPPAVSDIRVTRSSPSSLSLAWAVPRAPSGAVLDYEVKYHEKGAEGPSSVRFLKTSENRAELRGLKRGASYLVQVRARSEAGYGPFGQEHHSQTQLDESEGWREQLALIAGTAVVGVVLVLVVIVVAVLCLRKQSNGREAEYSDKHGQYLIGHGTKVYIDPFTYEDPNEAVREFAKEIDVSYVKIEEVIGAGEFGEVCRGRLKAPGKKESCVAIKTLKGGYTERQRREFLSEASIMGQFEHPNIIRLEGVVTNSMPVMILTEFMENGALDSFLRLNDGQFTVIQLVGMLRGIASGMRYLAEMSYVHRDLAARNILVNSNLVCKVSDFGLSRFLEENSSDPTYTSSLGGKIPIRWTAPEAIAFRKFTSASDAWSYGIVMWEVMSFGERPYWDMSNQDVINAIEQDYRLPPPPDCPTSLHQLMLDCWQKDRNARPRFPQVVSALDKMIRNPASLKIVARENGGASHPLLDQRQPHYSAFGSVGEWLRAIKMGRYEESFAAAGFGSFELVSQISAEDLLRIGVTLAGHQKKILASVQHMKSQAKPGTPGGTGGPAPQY

Study 1
SMILES: O=C(Nc1cccnn1)N1CC(C/C=C/c2cncc(Oc3ccc(C(F)(F)F)cn3)n2)C1
Read-out: cell-free assay
Method: competition with immobilised ligand
Tested at: 1 µM
target | remaining binding [%]
Serine/threonine-protein kinase WNK2 (WNK2, Homo sapiens, UniProt Q9Y3S1) | 0
Ephrin type-B receptor 4 (EPHB4, Homo sapiens, UniProt P54760) | 100
Tyrosine-protein kinase receptor UFO (AXL, Homo sapiens, UniProt P30530) | 100
Serine/threonine-protein kinase 25 (STK25, Homo sapiens, UniProt O00506) | 91
Dual specificity protein kinase CLK3 (CLK3, Homo sapiens, UniProt P49761) | 100

Study 2
Target: Ras GTPase-activating protein-binding protein 1, full length (G3BP1, Homo sapiens, UniProt Q13283)
Chain of UniProt Q13283 (whole entry, looked up): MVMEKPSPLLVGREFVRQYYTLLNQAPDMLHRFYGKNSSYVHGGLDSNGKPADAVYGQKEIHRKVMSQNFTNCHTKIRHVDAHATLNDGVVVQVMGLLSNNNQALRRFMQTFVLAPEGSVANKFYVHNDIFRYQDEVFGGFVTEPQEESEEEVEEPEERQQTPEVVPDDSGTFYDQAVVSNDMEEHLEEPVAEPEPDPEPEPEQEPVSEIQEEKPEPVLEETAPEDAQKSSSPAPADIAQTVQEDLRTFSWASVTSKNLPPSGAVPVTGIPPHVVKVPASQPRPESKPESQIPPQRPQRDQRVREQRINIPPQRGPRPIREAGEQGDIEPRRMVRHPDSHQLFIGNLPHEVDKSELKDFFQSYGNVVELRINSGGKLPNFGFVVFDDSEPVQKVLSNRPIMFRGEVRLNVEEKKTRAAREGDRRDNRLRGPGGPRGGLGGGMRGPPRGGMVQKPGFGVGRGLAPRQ
Method: RNA Bind-n-Seq
Form: RNA
Matrix: in vitro
Tested at: 200 nM
Notes: whole 134-nt RNA, ends assumed
With: 150 mM KCl
Baseline: input library
Reading: higher = stronger binding
Shared flanks, not repeated: GGGAGUUCUACAGUCCGACGAUC … UGGAAUUCUCGGGUGUCAAGG
Oligonucleotide | log2 enrichment
UCAAGUCCUGUGCUACACAUCGUAUGUACCGAAUCGGAAAGGAAAGGUUUUUGGAAAGUAUUAUGUUACGCCGUUCGGAUCUGCACUUCC | -1.19
UCCCGACAUCUGUGGCCCUGGCACCAAGAAGGUUCAUGUCAUCUUCAACUACAAGGGCAAGAACGUGCUGAUCAACAAGGACAUCCGUUG | 0.202
GAACUUUAGAGGAGGAUCUGAUGGAUAUGGCAGUGGACGUGGAUUUGGGGAUGGCUAUAAUGGGUAUGGAGGAGGACCUGGAGGUGGCAA | 0.473
CUCAAGUCCUGUGCUACACAUCGUAUGUACCGAAUCGGGGCGGGGCGGGCGGGAAAGUAUUAUGUUACGCCGUUCGGAUCUGCACUUCCA | 1.26
CUCAAGUCCUGUGCUACACAUCGUAUGUACCGAAUCGGGGUGGGGUGGGUGGGGAAAGUAUUAUGUUACGCCGUUCGGAUCUGCACUUCC | 0.902
GUCCUGUGCUACACAUCGUAUGUACCGAAUCGGGUUUUUUUGGGAAAAAAAGGGUGGGAAAGUAUUAUGUUACGCCGUUCGGAUCUGCAC | -0.195
UUGAGAAAAGCACCCAUAAUUUGCUACUUGAGGAUUUUAUUCCCUGGAUUCUCUGGAUGCUCAUUGCAUGAAAAGUGGAAAAGUUUAGAU | -0.279
CUGUGCUACACAUCGUAUGUACCGAAUCGUGUGUGUGUGUGUGUGUGUGUGUGUGUGUGUGUAAAGUAUUAUGUUACGCCGUUCGGAUCU | 0.767

Study 3
Target: Serine/threonine-protein kinase WNK2 (WNK2, Homo sapiens, UniProt Q9Y3S1)
Read-out: enzyme activity
Action: inhibitor
Tested at: 0.5 µM
Baseline: control
Compound | remaining activity [%]
COc1ccc(OC)c2c(=S)c3ccccc3[nH]c12 | 89.8
CO[C@H]1C[C@@H]2CC[C@@H](C)[C@@](O)(O2)C(=O)C(=O)N2CCCC[C@H]2C(=O)O[C@H]([C@H](C)C[C@@H]2CC[C@@H](O)[C@H](OC)C2)CC(=O)[C@H](C)/C=C(\C)[C@@H](O)[C@@H](OC)C(=O)[C@H](C)C[C@H](C)/C=C/C=C/C=C/1C | 103
COc1ccc(C(=O)Nc2sc3c(c2C(N)=O)CCCC3)cc1OC | 100
CNC(=O)c1cc(Oc2ccc(NC(=O)Nc3ccc(Cl)c(C(F)(F)F)c3)cc2)ccn1 | 101
Nc1ncnc2n[nH]c(Nc3ccc(F)cc3)c12 | 110
Nc1ccc2ncnc(NCCc3ccc(Oc4ccccc4)cc3)c2c1 | 96.7
O=C(CCCc1ccc(-c2ccccc2F)cc1)Nc1ccc(O)cc1 | 106

Study 4
Target: CCNA2, cyclin fold, Cln2 fusion (human)
Method: yeast growth competition, sequencing
Matrix: yeast
Notes: strong parent motif
Baseline: not given
Reading: higher = stronger binding
Parent: RBL1 docking peptide (human); GSAKRRLFGEDPP; partner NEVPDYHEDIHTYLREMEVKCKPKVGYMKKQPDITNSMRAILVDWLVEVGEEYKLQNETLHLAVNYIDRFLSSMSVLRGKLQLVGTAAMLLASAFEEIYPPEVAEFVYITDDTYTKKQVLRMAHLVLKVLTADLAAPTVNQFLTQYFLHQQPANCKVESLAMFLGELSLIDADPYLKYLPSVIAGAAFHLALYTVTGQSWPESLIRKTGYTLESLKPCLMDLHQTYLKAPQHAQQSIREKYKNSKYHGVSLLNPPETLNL
Variant | normalised enrichment score
GSIKRRLFGEDPP [A3I] | 3.66
GHAKRRLFGEDPP [S2H] | 6.44
GSAKRVLFGEDPP [R6V] | 3.09
GSAKRRLFGEDKP [P12K] | 5.77
GSAKRRLFGEDVP [P12V] | 5.56
GSAKRRLFGEDPN [P13N] | 6.37
GSAKRRLFGEDPI [P13I] | 5.89
GSALRRLFGEDPP [K4L] | 1.03

For quick reference, copied from above (study 3):
Compound | remaining activity [%]
Nc1ccc2ncnc(NCCc3ccc(Oc4ccccc4)cc3)c2c1 | 96.7
COc1ccc(C(=O)Nc2sc3c(c2C(N)=O)CCCC3)cc1OC | 100
